Results of several laboratories.
Each line is one published result; not all experiments were run side by side.
Organism: Pseudomonas aeruginosa

Structure (SMILES) | test | test system | setting | scale | MIC
CC(C)(C)c1ccc(COc2cc3c(=O)c(C(=O)NCCNCCO)cn(Cc4ccccc4)c3cc2Cl)cc1 | – | ATCC 27853 | – | ≥80% growth inhibition | < 0.25 µg/mL
CCCCCCCC[C@@H]1NC(=O)[C@@H](Cc2ccccc2)NC(=O)[C@H](CCN)NC(=O)[C@@H](NC(=O)[C@H](CCN)NC(=O)[C@@H](NC(=O)[C@H](CCN)NC(=O)c2ccc(-c3ccccc3)cc2)[C@@H](C)O)CCNC(=O)[C@H]([C@@H](C)O)NC(=O)[C@H](CCN)NC(=O)[C@H](CCN)NC1=O | broth microdilution | polymyxin-resistant clinical isolate | – | – | 4 µg/mL
CC[C@H](C)[C@H](NC(=O)[C@H](C)NC(=O)[C@@H](NC(=O)[C@H](CC(=O)O)NC(=O)[C@H](CCCCN)NC(=O)[C@H](CO)NC(=O)[C@@H](NC(=O)[C@H](CC(N)=O)NC(=O)[C@H](C)NC(=O)[C@@H](NC(=O)[C@H](CCC(=O)O)NC(=O)[C@H](CCCCN)NC(=O)[C@@H](NC(=O)[C@@H](NC(=O)[C@H](Cc1c[nH]cn1)NC(=O)[C@H](CCCCN)NC(=O)[C@@H](NC(=O)[C@H](CCCCN)NC(=O)[C@H](CCCCN)NC(=O)[C@@H](NC(=O)[C@H](CC(C)C)NC(=O)[C@H](CCCCN)NC(=O)[C@H](CC(N)=O)NC(=O)[C@H](Cc1ccccc1)NC(=O)[C@H](CCCNC(=N)N)NC(=O)[C@H](CCCCN)NC(=O)[C@H](CCCNC(=N)N)NC(=O)[C@H](Cc1ccccc1)NC(=O)CN)C(C)C)C(C)C)[C@@H](C)O)[C@@H](C)CC)[C@@H](C)O)C(C)C)C(C)C)C(=O)N[C@H](C(=O)N[C@@H](C)C(=O)NCC(=O)N[C@@H](CO)C(=O)NCC(=O)N[C@H](C(=O)N[C@@H](C)C(=O)N[C@H](C(=O)NCC(=O)N[C@@H](C)C(=O)N[C@@H](C)C(=O)N[C@@H](CCSC)C(N)=O)C(C)C)C(C)C)C(C)C | – | isolate RKI 93/12, CAMHB | – | – | 8 µg/mL
CC(C)[C@H](NC(=O)[C@H](CCCNC(=N)N)NC(=O)[C@H](CCCNC(=N)N)NC(=O)[C@@H](NC(=O)[C@H](C)NC(=O)[C@H](CC(N)=O)NC(=O)[C@H](CCCNC(=N)N)NC(=O)[C@@H](NC(=O)[C@H](CCCNC(=N)N)NC(=O)[C@H](CCCNC(=N)N)NC(=O)[C@@H](NC(=O)[C@@H](NC(=O)[C@H](CCCNC(=N)N)NC(=O)[C@H](CCCNC(=N)N)NC(=O)[C@H](Cc1c[nH]c2ccccc12)NC(=O)[C@H](Cc1c[nH]c2ccccc12)NC(=O)CN)[C@@H](C)O)C(C)C)C(C)C)C(C)C)C(=O)O | – | clinical strain 103 | 18 h, 37 °C | – | 16 µg/mL
CC[C@H](C)[C@H](NC(=O)[C@H](Cc1c[nH]cn1)NC(=O)[C@H](CCCCNC(=O)[C@@H](NC(=O)[C@H](CCCCN)NC(=O)CSC[C@H](NC(=O)[C@H](Cc1ccccc1)NC(=O)[C@H](CCCCNC(=O)[C@H](CC(C)C)NC(=O)[C@H](CCCCN)NC(=O)[C@H](CCCCN)NC(=O)c1ccc(O[C@@H]2O[C@H](CO)[C@H](O)[C@H](O)[C@H]2O)cc1)NC(=O)[C@H](CC(C)C)NC(=O)[C@H](CCCCN)NC(=O)[C@H](CCCCN)NC(=O)C[C@@H]1O[C@@H](C)[C@@H](O)[C@@H](O)[C@@H]1O)C(N)=O)[C@@H](C)CC)NC(=O)[C@@H](NC(=O)[C@H](CCCCN)NC(=O)CSC[C@H](NC(=O)[C@H](Cc1ccccc1)NC(=O)[C@H](CCCCNC(=O)[C@H](CC(C)C)NC(=O)[C@H](CCCCN)NC(=O)[C@H](CCCCN)NC(=O)c1ccc(O[C@@H]2O[C@H](CO)[C@H](O)[C@H](O)[C@H]2O)cc1)NC(=O)[C@H](CC(C)C)NC(=O)[C@H](CCCCN)NC(=O)[C@H](CCCCN)NC(=O)C[C@@H]1O[C@@H](C)[C@@H](O)[C@@H](O)[C@@H]1O)C(N)=O)[C@@H](C)CC)C(N)=O | – | PAO1, LB medium | – | – | > 64 µM
CC[C@H](C)[C@H](NC(=O)[C@H](CCC(N)=O)NC(=O)[C@@H]1CCCN1C(=O)[C@@H](NC(=O)[C@@H](NC(=O)[C@H](Cc1ccccc1)NC(=O)[C@H](C)NC(=O)[C@H](C)NC(=O)[C@H](CC(C)C)NC(=O)[C@H](CCCNC(=N)N)NC(=O)[C@H](C)NC(=O)[C@H](CC(C)C)NC(=O)[C@H](CC(C)C)NC(=O)CNC(=O)[C@@H](NC(=O)[C@@H](N)Cc1ccccc1)C(C)C)C(C)C)[C@@H](C)CC)C(=O)N[C@H](C(=O)N[C@@H](CCCCN)C(=O)N[C@@H](CCCNC(=N)N)C(=O)N[C@@H](Cc1ccccc1)C(=O)N[C@@H](CCC(N)=O)C(=O)N[C@@H](CCCCN)C(=O)N[C@@H](CCCCN)C(=O)N[C@@H](CC(N)=O)C(N)=O)C(C)C | broth microdilution | ATCC 27853 | – | – | 25 µM
CC(C)C[C@H](NC(=O)[C@H](C)NC(=O)CNC(=O)[C@@H](NC(=O)[C@@H](NC(=O)[C@H](CCCCN)NC(=O)[C@H](CCCCN)NC(=O)[C@H](CC(C)C)NC(=O)[C@H](CC(C)C)NC(=O)[C@H](CCCCN)NC(=O)[C@H](CC(C)C)NC(=O)[C@H](CC(C)C)NC(=O)[C@@H](N)CCCCN)C(C)C)C(C)C)C(=O)NCC(N)=O | – | ATCC 19606, CAMHB | 18 h, 37 °C | – | > 22 µM
CC[C@@H](C)[C@H](NC(=O)[C@H](C)NC(=O)[C@H](CCCCN)NC(=O)[C@H](CC(C)C)NC(=O)[C@H](C)NC(=O)[C@@H](NC(=O)[C@H](Cc1c[nH]cn1)NC(=O)[C@H](CC(C)C)NC(=O)[C@@H](NC(=O)[C@@H](NC(=O)[C@H](CCCCN)NC(=O)[C@H](CCCCN)NC(=O)[C@H](C)NC(=O)[C@H](CO)NC(=O)[C@H](CCCCN)NC(=O)[C@H](Cc1ccccc1)NC(=O)[C@@H](NC(=O)[C@H](CCCCN)NC(=O)[C@H](CC(C)C)NC(=O)[C@H](Cc1ccccc1)NC(=O)[C@H](CO)NC(=O)[C@H](CCCCN)NC(=O)[C@H](Cc1c[nH]c2ccccc12)NC(=O)[C@H](CCCCN)NC(C)=O)[C@@H](C)O)[C@@H](C)O)C(C)C)[C@@H](C)O)C(=O)N[C@@H](CO)C(=O)N[C@@H](CO)C(N)=O | broth dilution | ATCC 27853, Mueller-Hinton broth | 24 h, 37 °C | – | 4 µg/mL
CC(C)C[C@H](NC(=O)[C@@H]1CSCC(=O)N[C@@H](CCCCN)C(=O)N[C@@H](CC(C)C)C(=O)N[C@@H](CCCCN)C(=O)NCCCC[C@@H]2NC(=O)[C@H](CCCCN)NC(=O)[C@H](CC(C)C)NC(=O)[C@H](CCCCN)NC(=O)CSC[C@H](NC(=O)[C@H](CC(C)C)NC(=O)[C@H](CC(C)C)NC(=O)[C@H](CCCCN)NC2=O)C(=O)N[C@@H](CCCCN)C(=O)N[C@@H](CC(C)C)C(=O)N[C@@H](CCCCN)C(=O)N1)C(N)=O | – | PAO1 | 18 h | – | 256 µg/mL
